Measured values gathered from unrelated publications.
Parts stem from different laboratories: compare values within a part only.

Study 1
Sequence: IPDRSTKPVVFSPT
Form: peptide
Reading: direction not given
target or system	test	test system	conditions	enrichment score
Saccharomyces cerevisiae	binding, yeast competitive growth sequencing	cyclin A1-Cln2 strain, peptide tiling library	–	0.68
Saccharomyces cerevisiae	mating pheromone growth arrest, pooled competitive growth deep sequencing	no Cln2 overexpression	peptide tiling library	0.0082
Saccharomyces cerevisiae	binding, competitive growth deep sequencing	cyclin E1-Cln2 fusion strain	peptide tiling library	1.3
human cyclin A2	competitive growth deep sequencing	Saccharomyces cerevisiae, cyclin A2-Cln2 fusion strain	peptide tiling library	0.725

Study 2
Target: Sal-like protein 4, full length isoform A (SALL4, Homo sapiens, UniProt Q9UJQ4, residues 1-1053)
UniProt Q9UJQ4, sequence (whole entry, looked up): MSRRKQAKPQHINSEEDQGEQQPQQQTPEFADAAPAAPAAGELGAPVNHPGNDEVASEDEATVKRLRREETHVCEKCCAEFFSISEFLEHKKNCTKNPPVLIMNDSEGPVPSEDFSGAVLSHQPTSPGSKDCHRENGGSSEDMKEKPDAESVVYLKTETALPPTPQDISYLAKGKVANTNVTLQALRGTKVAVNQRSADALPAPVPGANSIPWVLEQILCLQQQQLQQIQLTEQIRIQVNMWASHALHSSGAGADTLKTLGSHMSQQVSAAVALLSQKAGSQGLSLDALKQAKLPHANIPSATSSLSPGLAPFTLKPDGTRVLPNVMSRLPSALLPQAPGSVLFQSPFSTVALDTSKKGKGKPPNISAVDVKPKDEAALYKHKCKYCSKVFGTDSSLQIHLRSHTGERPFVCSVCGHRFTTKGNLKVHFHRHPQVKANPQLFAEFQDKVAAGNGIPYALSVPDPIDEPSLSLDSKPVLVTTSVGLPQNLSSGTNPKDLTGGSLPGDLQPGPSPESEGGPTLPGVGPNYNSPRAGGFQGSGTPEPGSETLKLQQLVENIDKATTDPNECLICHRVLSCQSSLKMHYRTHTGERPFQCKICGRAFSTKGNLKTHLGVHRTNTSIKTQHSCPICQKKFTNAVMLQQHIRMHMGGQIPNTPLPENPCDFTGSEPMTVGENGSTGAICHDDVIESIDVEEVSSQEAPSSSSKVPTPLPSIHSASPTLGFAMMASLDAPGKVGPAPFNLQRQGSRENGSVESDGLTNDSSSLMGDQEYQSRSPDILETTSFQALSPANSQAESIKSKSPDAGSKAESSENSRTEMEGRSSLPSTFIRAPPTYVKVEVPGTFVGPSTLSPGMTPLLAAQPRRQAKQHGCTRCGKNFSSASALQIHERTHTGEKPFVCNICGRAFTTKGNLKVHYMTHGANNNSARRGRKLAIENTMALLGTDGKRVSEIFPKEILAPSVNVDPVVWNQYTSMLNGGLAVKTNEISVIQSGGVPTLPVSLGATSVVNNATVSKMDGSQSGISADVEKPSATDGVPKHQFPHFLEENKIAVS
Method: universal PBM
Form: double-stranded DNA, one strand shown
Sample: in vitro
Tested at: 600 nM
Notes: 8-mer, flanks averaged, mean of replicates
Reading: higher = stronger binding
Sequence	E-score
AGACAGTG	-0.0939
CAATGAAA	0.215
AACCGACC	-0.197
CCAAGTCA	-0.0437
GTGTTTGA	0.169
CAGTATGA	0.227
CACGCTTC	-0.324
GCTTGGCC	-0.276
AGGTAACC	-0.127
CCTAGAGC	-0.205
TTAAGCAA	0.254
ACCTGTCT	-0.0792
AGACTGCG	-0.274
ATAGGAGA	0.0444
AATGGATC	-0.0773
CGTCTGTC	-0.255
AAACTGGA	0.0636
ATCTCGGA	-0.0534
ATTCATGA	0.157
AACGCGTG	0.0504
CGACACAC	0.152
CGTCGCGC	-0.273

Study 3
Target: RNA binding protein fox-1 homolog 2, RRM domain, GST-SBP tag (RBFOX2, Homo sapiens, UniProt O43251-10, residues 100-194)
Method: RNA Bind-n-Seq
Form: RNA
Sample: in vitro
Tested at: 365 nM
Notes: natural RNA segment, single round, ends assumed
Baseline: no-protein control
Reading: higher = stronger binding
All sequences stand within: GGGAGUUCUACAGUCCGACGAUC … UGGAAUUCUCGGGUGCCAA
Residues (chain): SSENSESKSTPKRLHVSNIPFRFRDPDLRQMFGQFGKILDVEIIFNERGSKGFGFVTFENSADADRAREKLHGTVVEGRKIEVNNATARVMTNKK
Sequence	RBNS enrichment (R)
AUUCGAAGGGACUGUGCACGCUCUAAAGAUCACAGUUGCUUCUAAGCCAGAUUUCAUUUCUAUUCUUGUUUUAUGUGCCAAACCCCAAAGUGCAUUGGGCCUGAAUCUCU	0.773
UUGUGUUUACUCUUUGUAAAGCAAAGAGGUCUGUAUUUACACACCUUUACCUAGGGGUAUGUUUUCUGCCCUGCUUCCCAGUCCUCAUGAUUAUCUUUAAUACCCUAGGC	0.251
GACCACGCAAAGUGCUGGACACAUCAGUCAUCUCCAACUGGCUGAAAGGCUGAACCUCAGGGCUCCACCCACGUCAUGGCCACGCCCCCUCUAUUACAAGAGUCCGCCUU	0.287
UAUACCAUUAUGUGCAUGUUAUUGGUAGCAGGCAUAGUUUAUUAUUUAGUACUGAAACAUGCUCUUUUACCUAACAGUAAACAAGUAUGUUUUGAUAUAUAUCUGUUAAU	10
AUAGCCACUAACUCUGCAACAAUCCUUGGCUGUUGUCAUUGUUGUCUUUAUUUUAGGCUGGAUUUCAGAUGUGUUGCUUCUGAAGACACAAUGAAAGAAUGCAAUCUUCC	2.07
AAACGUACUGCUGGUUGAAUAUCUGAGGUAAAUGAUGUUUAAUCAAGAUGCUACUUGUAUCUUUGUCCAUAAAUUGUAAAUAAUUUUAUGCACAUUAUACCAAAUCUUCC	0.244
GGGUCCUCAACCUGGGUCUGUGCCCCCAGCUGUGCCCAGCACCACGGGACCUCCACAGUCCAAUGGCAUUGCCUGUGUGUGCUGUCAUGAAGAUACCACGGCUGUUCUGG	0.323
AUGCCAGCUGCCGUUGGAGACGCAAAGCCAAGCAAGGGUCAGGAGGGAAGCUGGCCCGGCUGACUGGAGAAUGGGAACCCCAGGACUCUCCACUCAUCUCGAAGGGUUGU	0.428
CCAAAGGAUCCGUUGUAAAAAUAUAUAUAUAUAAAUAUAUGUAUAUCCAGUGCAAUCAACUGUCAUUUCUUUUUCCUUAAAACAUAUGAGUAUAUAGAAAGAAAAGUUAC	0.818
CCUCUUGAAUCCAAGUGUCUGUAGCUUUGGAGACUGAGGGUCUGUGAAUAAAGGCGGUGGCACUGGAGUGGCUCCAUGGCAGUCUGUCAGGUCCUACCCUGAAGCCCGCA	0.376
AGGCCCUGUGUGACAACAGUAAGAGCUGGGUUUUGUUAUUCUCUAGAAUGGCUCCAGCUGUGGGUGUGCACAAUGAGGGAGGAACUGCUUUCCCCCUUACUGUCAUUGGU	0.286
GCUGCCCGGACACCACGUAAACAUAACACUAAAGAAACUGUCCUGGAGAUCCCAUCCUGCUACUAAGAAGUUUUCUGUACAUCACUUCCAAACAUUGGAAACUUUCAGAU	0.606

Study 4
Target: Histone acetyltransferase KAT6A, both winged helices, GST fusion (KAT6A, Homo sapiens, UniProt Q92794, residues 1-181)
Method: protein binding microarray
Form: double-stranded DNA, one strand shown
Sample: in vitro
Tested at: not given
Notes: 8-mer, flanks averaged, mean of 2 arrays, mostly near background
Baseline: not given
Reading: higher = stronger binding
Residues (chain): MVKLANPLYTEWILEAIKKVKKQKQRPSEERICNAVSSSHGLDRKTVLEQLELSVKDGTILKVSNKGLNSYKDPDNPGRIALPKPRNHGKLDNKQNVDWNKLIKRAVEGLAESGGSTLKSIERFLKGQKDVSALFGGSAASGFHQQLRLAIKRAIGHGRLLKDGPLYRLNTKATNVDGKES
Sequence	E-score
AAAGCGAA	0.152
TTCTCAAA	-0.208
CTGACCGA	0.101
TACAAGAA	-0.0649
GGCGCGAC	0.188
GAAGGGGA	-0.192
GCCGGCCA	0.255
TGGGTAAA	-0.144
GCACTACC	0.0495
TCCATGGA	0.0464
AGACCTGG	-0.0457
AAAAAGTC	-0.0344
CACGGGCA	0.226
CATTCATC	-0.159
AATTCTAT	-0.135

For quick reference, copied from above (study 4):
Sequence	E-score
AAAGCGAA	0.152
TTCTCAAA	-0.208
CTGACCGA	0.101
TACAAGAA	-0.0649
GGCGCGAC	0.188
GAAGGGGA	-0.192
GCCGGCCA	0.255
